Experimental data pooled from the literature.
Each line is one published result; not all experiments were run side by side. Values joined by “and” are separate records of one study, mostly repeats; a detail may differ.
EGFR: Epidermal growth factor receptor (EGFR, Homo sapiens, UniProt P00533)
EGFR G719S: Epidermal growth factor receptor (EGFR, Homo sapiens, UniProt P00533, G719S)
EGFR del747-752/P753S: Epidermal growth factor receptor (EGFR, Homo sapiens, UniProt P00533, del747-752/P753S)

O=C=[N][Ru-4]123([n]4c5ccc(O)cc5c5c6c(c7cc(F)c[n+]1c7c54)C(=O)NC6=O)[S+]1CC[S+]2CC[S+]3CC1 (stereo not drawn) — remaining activity (EGFR; enzyme activity; 100 nM, human enzyme, together with: 10 µM ATP; baseline: untreated): 121%
COc1c(Cl)cccc1Nc1c(-c2ccncc2C#C[C@@]2(C)CCCN2C(=O)/C=C/CN(C)C)[nH]c2c1C(=O)NCC2 — log2 fold change (EGFR; cysteine engagement, chemoproteomic profiling, measured: peptide 791-802; NCI-H2073; 10 µM, 2 h; baseline: DMSO, lower = stronger engagement): 2.98
CCN1CCN(Cc2ccc(C(=O)Nc3ccc(C)c(NCc4cnc5[nH]ccc5c4OC)c3)cc2C(F)(F)F)CC1 — remaining binding (Epidermal growth factor receptor (EGFR, Homo sapiens, UniProt P00533, L858R); binding, competition with immobilised ligand; 1 µM): 1.6%
COCC12C(=O)NC3C4(C(OC)CC1O)C1CC5(O)C(OC)C(O)C(OC(C)=O)(C1C5OC(=O)c1ccccc1)C3(O)C(OC)C24 (stereo not drawn) — remaining activity (EGFR; kinase activity, inhibitor, ProQinase kinase profiling; 25 µM; baseline: control): 100% and 97%
CNC(=O)C1CCN(c2cc(C)c(F)cc2NC(=O)c2ccc(-c3cc(O)ccc3C)c(C)c2)CC1 — remaining binding (EGFR G719S; binding, competition with immobilised ligand; 1 µM): 56%
CNC1C[S+]2CC[S+]3CC[S+](C1)[Ru-4]321([N]=C=S)[n]2c3ccc(OC)cc3c3c4c(c5cc(F)c[n+]1c5c32)C(=O)NC4=O (stereo not drawn) — remaining binding (Epidermal growth factor receptor (EGFR, Homo sapiens, UniProt P00533, G719C); KinomeScan; 0.1 µM; baseline: untreated): 100%
C=CC(=O)N1CCc2ccc(-n3c(=O)ccc4cnc5ccc(-c6cnn(C)c6)cc5c43)cc21 — remaining binding (EGFR G719S; KINOMEscan; 1 µM; baseline: DMSO control): 67%
Nc1ncc2c(n1)-c1c([nH]c3ccc(C4=CCOCC4)cc13)CCC2 — remaining binding (EGFR del747-752/P753S; binding, competition with immobilised ligand; 1 µM): 76%
CC(C)=CC1OC(C)(C)C2C=C3C(=O)C(Cl)=CC(O)C3C3C(O)C4OC4C(=O)C132 (stereo not drawn) — remaining binding (EGFR del747-752/P753S; cell-free assay, competition with immobilised ligand; 10 µM): 96%
